Results pooled from the literature.
Numbered parts are unrelated; each lists some results of a single study. Positions count from the first letter of the parent shown.
UniProt Q6ZN16, sequence (whole entry, looked up): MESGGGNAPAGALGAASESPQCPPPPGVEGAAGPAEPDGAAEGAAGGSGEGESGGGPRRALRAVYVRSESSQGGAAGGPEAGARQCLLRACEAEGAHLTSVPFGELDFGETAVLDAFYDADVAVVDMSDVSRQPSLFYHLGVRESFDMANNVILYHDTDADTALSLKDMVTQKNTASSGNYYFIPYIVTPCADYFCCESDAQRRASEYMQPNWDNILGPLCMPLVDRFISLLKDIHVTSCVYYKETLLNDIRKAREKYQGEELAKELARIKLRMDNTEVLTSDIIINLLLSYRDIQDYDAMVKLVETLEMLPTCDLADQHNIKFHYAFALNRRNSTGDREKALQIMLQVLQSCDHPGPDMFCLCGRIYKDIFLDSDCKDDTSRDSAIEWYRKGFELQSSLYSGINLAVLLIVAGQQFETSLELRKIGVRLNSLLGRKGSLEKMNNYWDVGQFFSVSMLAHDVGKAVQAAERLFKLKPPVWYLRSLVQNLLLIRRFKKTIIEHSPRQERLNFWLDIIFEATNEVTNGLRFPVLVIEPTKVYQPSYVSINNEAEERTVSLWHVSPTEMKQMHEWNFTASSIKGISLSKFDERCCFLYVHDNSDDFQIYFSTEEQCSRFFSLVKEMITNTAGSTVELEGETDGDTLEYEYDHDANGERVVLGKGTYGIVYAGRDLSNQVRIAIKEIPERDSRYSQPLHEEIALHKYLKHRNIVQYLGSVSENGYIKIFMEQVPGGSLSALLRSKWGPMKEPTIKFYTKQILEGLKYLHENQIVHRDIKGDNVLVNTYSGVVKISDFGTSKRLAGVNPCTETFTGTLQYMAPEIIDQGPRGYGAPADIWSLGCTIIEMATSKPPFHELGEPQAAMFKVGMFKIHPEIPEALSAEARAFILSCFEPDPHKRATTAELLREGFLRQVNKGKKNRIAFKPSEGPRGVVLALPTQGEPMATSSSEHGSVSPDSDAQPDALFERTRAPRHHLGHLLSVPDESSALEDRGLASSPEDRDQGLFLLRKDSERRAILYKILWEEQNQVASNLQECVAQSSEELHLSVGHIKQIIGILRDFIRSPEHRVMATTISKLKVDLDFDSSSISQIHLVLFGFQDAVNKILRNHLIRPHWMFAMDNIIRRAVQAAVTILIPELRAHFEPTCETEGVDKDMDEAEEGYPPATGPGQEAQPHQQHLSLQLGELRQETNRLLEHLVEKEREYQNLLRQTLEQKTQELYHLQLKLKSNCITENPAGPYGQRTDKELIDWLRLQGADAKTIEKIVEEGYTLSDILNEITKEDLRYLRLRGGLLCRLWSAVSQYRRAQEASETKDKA

Sample 1 — Variant: V143Y; method: DHFR PCA, deep sequencing; matrix: yeast; relative to: wild-type fitted maximum; reading: higher = stronger binding
Target: ABI1, truncated, D143A, DHFR fusion (Arabidopsis thaliana)
Setting: methotrexate growth selection, single substitutions
Starting sequence: PYL1, truncated, DHFR fusion (Arabidopsis thaliana); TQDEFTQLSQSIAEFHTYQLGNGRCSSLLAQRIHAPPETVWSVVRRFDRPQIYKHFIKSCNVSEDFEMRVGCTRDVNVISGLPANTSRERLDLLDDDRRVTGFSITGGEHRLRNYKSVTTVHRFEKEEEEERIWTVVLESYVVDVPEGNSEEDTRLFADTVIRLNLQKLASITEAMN; partner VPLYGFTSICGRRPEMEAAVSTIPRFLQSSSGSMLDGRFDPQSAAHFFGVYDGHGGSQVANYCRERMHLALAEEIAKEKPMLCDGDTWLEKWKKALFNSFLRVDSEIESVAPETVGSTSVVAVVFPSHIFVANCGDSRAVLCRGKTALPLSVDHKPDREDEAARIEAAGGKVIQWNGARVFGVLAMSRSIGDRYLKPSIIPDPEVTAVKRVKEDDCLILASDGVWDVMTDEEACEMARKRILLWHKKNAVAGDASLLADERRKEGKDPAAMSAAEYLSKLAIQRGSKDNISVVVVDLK
| with | relative binding score [%] |
| --- | --- |
| (+)-ABA 58 µM | -1.37 |
| (+)-ABA 0.032 µM | -4.28 |
| (+)-ABA 0.0091 µM | -2.93 |
| (+)-ABA 1.4 µM | -19.6 |
| (+)-ABA 0.39 µM | -16.4 |
| (+)-ABA 0 µM | -0.692 |

Sample 2 — method: RNA Bind-n-Seq; form: RNA; matrix: in vitro; concentration: 15 pmol; setting: 4-mer, random 30-nt RNA, single round; with: 3 µM RocA, 2 mM AMP-PNP; relative to: mean of 4-mers; reading: higher = stronger binding
Target: Eukaryotic initiation factor 4A-I (EIF4A1, Homo sapiens, UniProt P60842, residues 1-406, full length assumed)
UniProt P60842, sequence (whole entry, looked up): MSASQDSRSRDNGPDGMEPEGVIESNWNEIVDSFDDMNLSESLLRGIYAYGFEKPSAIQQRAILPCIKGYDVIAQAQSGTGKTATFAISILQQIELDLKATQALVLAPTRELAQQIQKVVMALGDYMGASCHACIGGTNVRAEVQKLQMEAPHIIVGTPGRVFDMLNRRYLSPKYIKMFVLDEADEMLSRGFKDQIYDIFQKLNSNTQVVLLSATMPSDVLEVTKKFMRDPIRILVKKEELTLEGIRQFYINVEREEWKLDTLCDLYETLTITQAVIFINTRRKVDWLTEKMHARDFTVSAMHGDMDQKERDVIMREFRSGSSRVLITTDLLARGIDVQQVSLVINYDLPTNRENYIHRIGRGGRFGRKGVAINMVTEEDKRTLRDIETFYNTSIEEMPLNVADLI
| Oligonucleotide | 4-mer enrichment Z-score |
| --- | --- |
| UUGU | 0.475 |
| UCCG | -0.773 |
| GCAA | 0.125 |
| GCAU | -0.529 |
| CGAA | 0.93 |
| UAAA | 1.4 |
| AUCA | -1.21 |
| UAUG | 0.704 |

Sample 3 — method: protein-binding microarray; form: double-stranded DNA, one strand shown; matrix: in vitro; concentration: not given; reading: higher = stronger binding
Target: Max-binding protein MNT, bHLH-zipper, MAX partner unstated (MNT, Homo sapiens, UniProt Q99583, residues 220-300)
Setting: k-mer, scored over probes, only values ≥0.25
Construct (chain): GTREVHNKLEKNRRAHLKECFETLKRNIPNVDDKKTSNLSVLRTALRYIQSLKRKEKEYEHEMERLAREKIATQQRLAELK
| Oligonucleotide | E-score |
| --- | --- |
| CGTGACTC | 0.327 |
| CCCCACCC | 0.34 |
| CGTGACAG | 0.356 |
| AATCACGT | 0.428 |
| CGTGGATC | 0.331 |
| GCGAAGCA | 0.264 |
| GCATGACC | 0.347 |
| CCGTGTCA | 0.301 |

Other studies, line by line
| SMILES | target | effect on | method | concentration | quantity | result |
| --- | --- | --- | --- | --- | --- | --- |
| CCC(=O)N[C@H]1CC[C@@H](C(=O)N(C)c2ccc(-c3nc4ccccc4o3)cc2)C1 | Mitogen-activated protein kinase kinase kinase 15 (MAP3K15, Homo sapiens, UniProt Q6ZN16) | cell-free assay | competition with immobilised ligand | 1 µM | remaining binding | 100% |

Excerpt of the above (sample 2):
| Oligonucleotide | 4-mer enrichment Z-score |
| --- | --- |
| GCAU | -0.529 |
